Measured values from different studies.
Compare with care: the assays were run in different laboratories. Numbers after ± are the reported error.
BAZ2A eAT-hook: BAZ2A eAT-hook (Mus musculus, UniProt Q91YE5)
UniProt Q91YE5, sequence (whole entry, looked up): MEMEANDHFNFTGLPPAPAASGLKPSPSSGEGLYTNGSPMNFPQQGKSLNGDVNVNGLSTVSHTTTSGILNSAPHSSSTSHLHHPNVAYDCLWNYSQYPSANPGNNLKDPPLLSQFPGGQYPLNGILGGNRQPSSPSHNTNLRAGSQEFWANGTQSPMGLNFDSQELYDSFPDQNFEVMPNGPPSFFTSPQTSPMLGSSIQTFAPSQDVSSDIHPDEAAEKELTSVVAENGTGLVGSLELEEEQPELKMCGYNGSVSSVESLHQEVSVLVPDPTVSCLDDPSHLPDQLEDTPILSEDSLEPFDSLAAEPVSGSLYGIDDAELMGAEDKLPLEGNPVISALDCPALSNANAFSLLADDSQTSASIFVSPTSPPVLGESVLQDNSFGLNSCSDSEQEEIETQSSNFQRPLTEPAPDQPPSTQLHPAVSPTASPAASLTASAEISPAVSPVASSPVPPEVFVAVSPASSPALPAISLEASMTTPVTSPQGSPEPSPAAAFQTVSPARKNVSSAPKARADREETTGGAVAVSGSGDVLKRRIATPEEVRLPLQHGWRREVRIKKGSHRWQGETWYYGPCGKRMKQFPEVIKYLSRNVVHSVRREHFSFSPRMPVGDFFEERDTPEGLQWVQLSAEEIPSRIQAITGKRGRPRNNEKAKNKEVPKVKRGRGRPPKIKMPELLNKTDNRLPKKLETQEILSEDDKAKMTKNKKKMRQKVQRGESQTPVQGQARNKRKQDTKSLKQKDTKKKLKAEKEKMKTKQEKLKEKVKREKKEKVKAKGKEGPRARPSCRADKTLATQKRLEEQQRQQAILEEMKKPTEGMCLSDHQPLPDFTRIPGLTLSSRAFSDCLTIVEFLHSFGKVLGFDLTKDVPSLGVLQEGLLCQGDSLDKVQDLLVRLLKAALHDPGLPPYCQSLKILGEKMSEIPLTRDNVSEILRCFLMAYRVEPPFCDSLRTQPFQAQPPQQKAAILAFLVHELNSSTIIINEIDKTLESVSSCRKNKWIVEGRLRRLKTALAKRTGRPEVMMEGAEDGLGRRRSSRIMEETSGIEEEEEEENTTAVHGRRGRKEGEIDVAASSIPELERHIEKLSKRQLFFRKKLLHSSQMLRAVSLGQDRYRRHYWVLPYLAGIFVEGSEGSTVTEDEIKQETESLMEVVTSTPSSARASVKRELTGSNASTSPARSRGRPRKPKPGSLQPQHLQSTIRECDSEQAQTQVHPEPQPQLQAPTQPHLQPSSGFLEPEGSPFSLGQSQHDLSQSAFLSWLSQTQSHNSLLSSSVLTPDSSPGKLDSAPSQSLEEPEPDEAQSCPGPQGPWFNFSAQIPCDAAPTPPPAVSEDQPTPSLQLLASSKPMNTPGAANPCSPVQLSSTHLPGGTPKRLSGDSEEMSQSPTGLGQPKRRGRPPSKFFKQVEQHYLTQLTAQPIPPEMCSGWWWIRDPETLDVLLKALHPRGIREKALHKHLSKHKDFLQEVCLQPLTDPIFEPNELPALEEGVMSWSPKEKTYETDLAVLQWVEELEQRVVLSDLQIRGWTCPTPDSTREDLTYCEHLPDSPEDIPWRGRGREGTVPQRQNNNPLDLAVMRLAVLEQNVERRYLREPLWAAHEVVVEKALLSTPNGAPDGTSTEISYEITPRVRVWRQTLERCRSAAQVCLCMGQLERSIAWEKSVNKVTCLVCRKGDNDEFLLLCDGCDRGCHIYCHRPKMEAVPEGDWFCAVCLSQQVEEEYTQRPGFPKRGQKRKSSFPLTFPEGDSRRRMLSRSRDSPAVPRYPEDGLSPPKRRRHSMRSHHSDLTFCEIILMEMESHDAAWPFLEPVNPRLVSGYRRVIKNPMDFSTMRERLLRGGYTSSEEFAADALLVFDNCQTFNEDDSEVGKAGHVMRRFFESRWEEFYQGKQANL
T1: furA 1-165 (Synechocystis sp. PCC 6803); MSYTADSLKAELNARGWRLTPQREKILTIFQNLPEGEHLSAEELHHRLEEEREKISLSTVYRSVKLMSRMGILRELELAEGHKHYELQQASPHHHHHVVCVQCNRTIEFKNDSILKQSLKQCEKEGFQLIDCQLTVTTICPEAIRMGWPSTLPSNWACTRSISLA
B1: UGT1A9 (Homo sapiens, UniProt O60656); chain GKLLVVPMDGSHWFTMRSVVEKLILRGHEVVVVMPEVSWQLGRSLNCTVKTYSTSYTLEDLDREFKAFAHAQWKAQVRSIYSLLMGSYNDIFDLFFSNCRSLFKDKKLVEYLKESSFDAVFLDPFDNCGLIVAKYFSLPSVVFARGILCHYLEEGAQCPAPLSYVPRILLGFSDAMTFKERVRNHIMHLEEHLLCHRFFKNALEIASEILQTPVTEYDLYSHTSIWLLRTDFVLDYPKPVMPNMIFIGGINCHQGKPLPMEFEAYINASGEHGIVVFSLGSMVSEIPEKKAMAIADALGKIPQTVLWRYTGTRPSNLANNTILVKWLPQNDLLGHPMTRAFITHAGSHGVYESICNGVPMVMMPLFGDQMDNAKRMETKGAGVTLNVLEMTSEDLENALKAVINDKSYKENIMRLSSLHKDRPVEPLDLAVFWVEFVMRHKGAPHLRPAAHDLTWYQYHSLDVIGFLLAVVLTVAFITFKCCAYGYRKCLGKKGRVKKAHKSKTH
UniProt Q9US51, sequence (whole entry, looked up): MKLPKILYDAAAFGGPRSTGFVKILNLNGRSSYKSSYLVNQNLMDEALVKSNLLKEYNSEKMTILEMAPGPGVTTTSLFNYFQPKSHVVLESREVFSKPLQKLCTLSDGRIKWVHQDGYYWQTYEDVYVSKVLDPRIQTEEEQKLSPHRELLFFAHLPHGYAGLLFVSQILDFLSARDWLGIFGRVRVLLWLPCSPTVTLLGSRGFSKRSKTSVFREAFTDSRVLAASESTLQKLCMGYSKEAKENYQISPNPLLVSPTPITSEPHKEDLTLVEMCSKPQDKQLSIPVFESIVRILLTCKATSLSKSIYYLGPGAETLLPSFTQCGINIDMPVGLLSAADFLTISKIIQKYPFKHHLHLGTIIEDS
UniProt Q15717, sequence (whole entry, looked up): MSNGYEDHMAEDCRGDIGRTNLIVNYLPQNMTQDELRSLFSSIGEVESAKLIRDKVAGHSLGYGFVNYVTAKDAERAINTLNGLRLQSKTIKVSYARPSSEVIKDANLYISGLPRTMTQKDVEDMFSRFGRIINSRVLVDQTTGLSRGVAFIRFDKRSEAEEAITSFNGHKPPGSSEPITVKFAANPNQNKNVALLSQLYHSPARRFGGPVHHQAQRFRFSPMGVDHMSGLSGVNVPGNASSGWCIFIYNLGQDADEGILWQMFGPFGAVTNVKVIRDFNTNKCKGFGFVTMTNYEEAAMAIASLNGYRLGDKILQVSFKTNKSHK
UniProt P06224, sequence (whole entry, looked up): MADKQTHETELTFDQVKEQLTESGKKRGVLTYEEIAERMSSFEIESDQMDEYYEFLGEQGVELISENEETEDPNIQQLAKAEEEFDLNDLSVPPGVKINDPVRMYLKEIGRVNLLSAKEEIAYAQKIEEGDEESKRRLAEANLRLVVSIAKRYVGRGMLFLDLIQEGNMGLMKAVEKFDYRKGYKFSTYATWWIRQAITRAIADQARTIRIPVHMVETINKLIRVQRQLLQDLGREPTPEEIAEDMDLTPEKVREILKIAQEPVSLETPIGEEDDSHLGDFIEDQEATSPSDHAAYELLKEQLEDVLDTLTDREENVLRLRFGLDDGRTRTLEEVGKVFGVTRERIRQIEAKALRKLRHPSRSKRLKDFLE
UniProt P19466, sequence (whole entry, unmodified, looked up): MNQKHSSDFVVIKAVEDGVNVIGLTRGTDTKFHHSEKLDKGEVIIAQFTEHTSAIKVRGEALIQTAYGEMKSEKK

Substance | tested on | assay | system | conditions | measurement | value
CCACCGAATGGAACAAGAGAAGATTAGGAAACGTGGTCAACGTGGTAACCAAGGAATCATGAATTTTATGGGTGACATGGATGATTTGATGGAGGAGAATGATGATTACGATGATGGTACCAAGAGCGTTGAACATTCGATGAAACGAGTCAACCTGTCAGGTGAAAACGATCCTAGCCTTGCTTCCCGCCAACCTGCTCAATCGCAACAAC (dsDNA) | mtf1 (Schizosaccharomyces pombe, UniProt Q9US51) | EMSA | double-stranded DNA, one strand shown | – | binding | no binding
CTATTTCTCCTGGTAAGGAATCATCTGGTACATTTACATCATTACCACATATTGGACATTTTAATAGTACCATGATGGATCGAATAGAAATATAAAGTAAGCAGTTGAAAAGCTTTTATGAAATAAAAGGTTCGAAATTAGTACCAAACTCTAAGCACTATAGTACTGTTTGTACTTATAACGCCCTG (dsDNA) | lysM 1-140 (Sulfolobus acidocaldarius, UniProt Q4JAQ1) | missing contact interference | double-stranded DNA, one strand shown | – | binding | binds
GGGAGCAUCACGUCUUUGUCUCUAGUGCAGUUUUUCGAGAUAUUCCGUAGUACAUAUUUAUUUUUAAACAAC (ssRNA) | SOD1 fragment G94A (Homo sapiens) | EMSA | – | metallated | binding | binds
GAGAAACCGUGUAAACAAAACAUAACUGAGAGG (structured RNA; hairpin, large loop) | BAZ2A eAT-hook | MST | – | 50 nM RNA | K1/2 | 569 ± 40 nM
GAGUUGAGUUGAGUUGAGUUGAGUUGAGUUGAGUUGAGUUGAGUUGAGUUGAGUU (ssRNA; single strand) | mtrB full length assumed T30V/K37A (Bacillus subtilis, UniProt P19466) | filter binding | – | with: no tryptophan | Kd | 0.092 ± 0.004 µM
CCATGGGTTCAACCCTGCTTAACATTTCTTAATAATTTTAGTTGCTATAAATTCTCATTTATGCCCCTATAATAATTCGGGAG (dsDNA) | T1, furA 1-165 (Synechocystis sp. PCC 6803) | EMSA | double-stranded DNA, one strand shown | – | binding | binds
GGGAAGGGUUUAAACAGUUUGAAAUAUUCUGUCUUCAUUUCUGUAAUAGUUAAUAUCUGGCUGUCCUUUUUAUAAUGCAAAGUGAGAACUUUCCCUACUGUGUUUGAUAAAUGUUGUCCAGGUUCACUUGCCAAGAAUGUGUUGUCUAAAAUG (ssRNA) | ELAVL1 full length assumed (Homo sapiens, UniProt Q15717) | EMSA | – | – | binding | binds
AGUUCCAUGAUGUUUUCAAACUCUAUUACCUACAUUAUUUGAAC (structured RNA; hairpin, large stem-loop) | BAZ2A eAT-hook | competition, MST | – | competition with DNA | K1/2 | 277 ± 8 nM
TGTGAATAATGAGACAAGACTTATTATATCAGCCTTGATTTGCAGTGTCAAGAGGTAAATGTTTTTATTTATCTCTCGTGACGACTTTTATAATG (dsDNA) | sigA 1-371 (Bacillus subtilis, UniProt P06224) | competition with labeled DNA, competition EMSA | double-stranded DNA, one strand shown | – | binding | binds
GGGAGACCUAGCCUCAUAUAAUCGUUGUCCAGAAUUGUAUAUAUUCGUAGCAUAAGUUUUCCAAACAUUAUUUUGUUGUCGAAAAUUGUACAUAAGCCAAUUAAGCCGCUAAUUCU (ssRNA) | brat 756-1037 H802L (Drosophila melanogaster, UniProt Q8MQJ9) | EMSA | – | – | binding | no binding
B1 (UGT1A9) | O=c1oc2cc(O)ccc2c(-c2ccccc2)c1-c1ccccc1 | steady-state kinetics | – | pH 7.4, 37 °C | Vmax | 0.000137 µmol/min/mg

Excerpt of the above:
Substance | tested on | assay | system | conditions | measurement | value
GGGAGACCUAGCCUCAUAUAAUCGUUGUCCAGAAUUGUAUAUAUUCGUAGCAUAAGUUUUCCAAACAUUAUUUUGUUGUCGAAAAUUGUACAUAAGCCAAUUAAGCCGCUAAUUCU (ssRNA) | brat 756-1037 H802L (Drosophila melanogaster, UniProt Q8MQJ9) | EMSA | – | – | binding | no binding
